Published values from different studies.
Each numbered part is a random draw from the data of one study; scales do not carry over between parts. Changes are numbered by the printed parent chain.

Block 1 — target: CCNE1, cyclin fold, Cln2 fusion (human); technique: yeast growth competition, sequencing; matrix: yeast; notes: weak parent motif; reference: not given; reading: higher = stronger binding
Starting sequence: ORC1 docking peptide (human); PRARKRLELGNLG
Under “normalised enrichment score”, `PRARSRLELGNLG [K5S]` is recorded as 0.202.
`PRARKRLELFNLG [G10F]` — result for “normalised enrichment score”: 0.716.
For `PRARGRLELGNLG [K5G]`, “normalised enrichment score” read -0.126.
For `PSARKRLELGNLG [R2S]`, “normalised enrichment score” read 0.0602.
For `PRARKRLTLGNLG [E8T]`, “normalised enrichment score” read -0.0804.
For `PRARKRLELQNLG [G10Q]`, “normalised enrichment score” read -0.429.
`PRFRKRLELGNLG [A3F]`: “normalised enrichment score” 0.138.
Under “normalised enrichment score”, `PRARKRLELNNLG [G10N]` is recorded as -0.266.
`PRARKRLELGMLG [N11M]` — result for “normalised enrichment score”: 1.32.
`WRARKRLELGNLG [P1W]`: “normalised enrichment score” 1.26.
Under “normalised enrichment score”, `PRARKRLELGYLG [N11Y]` is recorded as 1.3.
For `ERARKRLELGNLG [P1E]`, “normalised enrichment score” read 0.782.
`PRIRKRLELGNLG [A3I]` — result for “normalised enrichment score”: -0.631.

Block 2 — technique: DHFR PCA, deep sequencing; matrix: yeast; together with: (+)-ABA 200 µM; reference: wild-type fitted maximum; reading: higher = stronger binding
Target: ABI1, truncated, D143A, DHFR fusion (Arabidopsis thaliana)
Notes: methotrexate growth selection, single substitutions
Starting sequence: PYL1, truncated, DHFR fusion (Arabidopsis thaliana); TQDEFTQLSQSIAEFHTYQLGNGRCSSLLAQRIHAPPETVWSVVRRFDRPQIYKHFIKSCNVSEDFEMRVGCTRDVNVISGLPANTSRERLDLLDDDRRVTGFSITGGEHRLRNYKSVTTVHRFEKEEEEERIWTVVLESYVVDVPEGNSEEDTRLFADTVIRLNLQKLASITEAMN; partner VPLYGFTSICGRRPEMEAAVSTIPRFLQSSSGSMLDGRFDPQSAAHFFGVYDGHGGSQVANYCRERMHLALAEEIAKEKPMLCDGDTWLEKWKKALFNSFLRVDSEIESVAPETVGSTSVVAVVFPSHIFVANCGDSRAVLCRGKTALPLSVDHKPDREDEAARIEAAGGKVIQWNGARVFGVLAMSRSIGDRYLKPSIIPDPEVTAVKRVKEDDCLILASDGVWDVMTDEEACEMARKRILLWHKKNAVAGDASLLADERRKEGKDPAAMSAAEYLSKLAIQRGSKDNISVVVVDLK
`D48S` — result for “relative binding score”: 73%.
`S63L`: “relative binding score” 92.5%.
Under “relative binding score”, `Q167W` is recorded as 70.4%.
Under “relative binding score”, `V44Y` is recorded as -3%.
For `V62N`, “relative binding score” read 54.9%.
`Q19S` — result for “relative binding score”: 102%.
`S63Q`: “relative binding score” 99.5%.
`D153E`: “relative binding score” 100%.
Under “relative binding score”, `V100H` is recorded as 71.5%.
`E152Q` — result for “relative binding score”: 97.1%.
`Q7W`: “relative binding score” 104%.

Block 3 — technique: competition protein-binding microarray; form: double-stranded DNA, one strand shown; matrix: in vitro; tested at: 2 µM; together with: Pho4 competitor, 0.05 µM; reading: higher = stronger binding; shared flanks, not repeated: … GTCTTGATTCGCTTGACGCTGCTG
Target: Centromere-binding protein 1, full length, His-tagged (CBF1, Saccharomyces cerevisiae, UniProt P17106, residues 1-351)
UniProt P17106, sequence (whole entry, looked up): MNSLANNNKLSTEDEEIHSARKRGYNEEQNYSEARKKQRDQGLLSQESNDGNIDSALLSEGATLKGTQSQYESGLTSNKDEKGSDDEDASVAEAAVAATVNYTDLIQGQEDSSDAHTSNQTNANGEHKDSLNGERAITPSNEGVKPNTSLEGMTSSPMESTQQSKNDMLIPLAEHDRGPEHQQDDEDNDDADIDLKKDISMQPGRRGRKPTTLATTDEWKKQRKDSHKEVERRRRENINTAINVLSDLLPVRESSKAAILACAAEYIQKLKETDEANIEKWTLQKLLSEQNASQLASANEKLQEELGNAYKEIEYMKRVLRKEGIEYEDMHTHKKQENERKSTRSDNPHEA
Notes: whole 60-bp probe, lowest competitor level
`GTAAGGGTGAGGGGCCACGTGGCAATCAGAGCAGCT` has a fluorescence intensity of 847 a.u.
`CTCTTCAGAGGTAATTGCATGACAGCAAGATTCGCG` has a fluorescence intensity of 81.7 a.u.
`TGAGAAGAGAGGCCACACATGCTGTTGGGGTTCATG` gave a fluorescence intensity of 66.1 a.u.
For `TACTAGTACGTAAACAACGTGGTGAAGTAGAAAAAA`, the fluorescence intensity was 108 a.u.
`CTTCTGTAAATTTTTCACGTGATATGACGCGCCCCG` gave a fluorescence intensity of 3470 a.u.
With `CTTTCCCGATCTTGTCACGAAACTTTAGCACATTTG` the fluorescence intensity was 84.3 a.u.
For `CGCTATTTTCGCCGTCACATGTCAATAAAAGCAGAT`, the fluorescence intensity was 1970 a.u.
For `TATAGCTCTTTAATGCACATGCAAATGCGGTGGCGC`, the fluorescence intensity was 108 a.u.
`CGTCCTAGTGATTGTCACAACACTTCCATGAGGAAG` has a fluorescence intensity of 121 a.u.
The fluorescence intensity of `TCCCTTCAAACTCACCACGTGATGGTCTAGACGTTG` is reported as 4270 a.u.
With `CTAACGAAGGTTTTTCACGTGTGGTACAAGCCAAGT` the fluorescence intensity was 567 a.u.
For `CTGTGGGAGAGCCAGTTCGTGCCAGCCGTTATTTCT`, the fluorescence intensity was 71.5 a.u.
The fluorescence intensity of `TGCGCAACAACTTTTCACGTGTGATTATGTCTAGAA` is reported as 800 a.u.
The fluorescence intensity of `GCAGCTCTTTTATTTCACGTGTTCCGGTTTCCCTCT` is reported as 1170 a.u.
For `CTAGGCGGGATCTGGCCCGTGGAACTCGTATGGAAT`, the fluorescence intensity was 57 a.u.
For `CCAATCACCGTTCCACGCGTGCAAATCTCTATGACA`, the fluorescence intensity was 97.3 a.u.

Block 4 — technique: protein-binding microarray; form: double-stranded DNA, one strand shown; matrix: in vitro; tested at: 2200 nM top; notes: 60-bp whole probe; together with: salmon DNA 0.4 mg/ml; reference: random background probes; reading: higher = stronger binding
Target: Interferon regulatory factor 7, full length, phosphomimetic (IRF7, Homo sapiens, UniProt Q92985, residues 1-503, S471D/S472D/S475D/S476D/S477D/S483D/S484D/S487D)
Shared flanks, not repeated: GCCTAGCAC … GTGCTAGGTCTTGATTCGCTTGACGCTGCTG
Construct (chain): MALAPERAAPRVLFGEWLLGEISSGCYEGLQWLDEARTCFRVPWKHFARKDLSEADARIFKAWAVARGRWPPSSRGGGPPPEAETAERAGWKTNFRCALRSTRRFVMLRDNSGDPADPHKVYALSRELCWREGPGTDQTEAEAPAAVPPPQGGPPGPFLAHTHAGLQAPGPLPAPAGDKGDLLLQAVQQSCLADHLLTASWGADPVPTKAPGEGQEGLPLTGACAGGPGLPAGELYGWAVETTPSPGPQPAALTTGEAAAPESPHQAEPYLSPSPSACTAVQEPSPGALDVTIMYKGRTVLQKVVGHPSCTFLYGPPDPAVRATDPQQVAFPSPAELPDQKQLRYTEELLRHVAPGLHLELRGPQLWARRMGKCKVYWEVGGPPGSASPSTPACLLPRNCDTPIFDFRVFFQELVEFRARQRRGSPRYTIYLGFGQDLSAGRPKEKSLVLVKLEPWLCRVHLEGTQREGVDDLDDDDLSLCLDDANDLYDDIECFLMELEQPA
`TTACATCTCAGTCTCGATTA`: “fitted relative affinity” 1.23 z-score.
Under “fitted relative affinity”, `GACGGTTGCGGTATCGGGAC` is recorded as 0.185 z-score.
`GACGGTATCCTACTGGTGAC`: “fitted relative affinity” 0.216 z-score.
`TCAATTTTCCCCTACTGACT` — result for “fitted relative affinity”: 2.18 z-score.
`TCATGTTTCCATTTTCTACT`: “fitted relative affinity” 5.03 z-score.
Under “fitted relative affinity”, `TTCTTGCGGAGTTTCTTGCA` is recorded as 0.396 z-score.
For `GACGATATCAGGATCGAGAC`, “fitted relative affinity” read 0.191 z-score.
`GTGGCCTTTGTTTCCAGGCA`: “fitted relative affinity” 0.351 z-score.
`TTAGGACTGCTTATCCTTCA` — result for “fitted relative affinity”: 0.504 z-score.
`TCATTTTTTTCTTTTATACT`: “fitted relative affinity” 2.97 z-score.
`TTAGGTTTCGTTTCCCTTTA` — result for “fitted relative affinity”: 11.5 z-score.
`TGCCATATTTATCTGCAAAG` — result for “fitted relative affinity”: 0.59 z-score.
Under “fitted relative affinity”, `TTAGATCTCATTATCGATTA` is recorded as 0.607 z-score.
`TTAGGTTTCTTTTCCCTTTA`: “fitted relative affinity” 4.14 z-score.
`TTATGTTTCCTTTCCCTTTA`: “fitted relative affinity” 5.86 z-score.
Under “fitted relative affinity”, `TTAGGCCTCCTTTTCCTTTA` is recorded as 1.58 z-score.
For `GACGGTTCCGTTTTCCTGAC`, “fitted relative affinity” read 3.96 z-score.

Block 5 — technique: universal PBM; form: double-stranded DNA, one strand shown; matrix: in vitro; tested at: not given; reading: higher = stronger binding
Target: Sal-like protein 4, full length isoform B (SALL4, Homo sapiens, UniProt Q9UJQ4-2, residues 1-616)
Notes: 8-mer, flanks averaged, mean of replicates
`TGCTTAAA` gave an E-score of 0.145.
For `AGACGAAC`, the E-score was 0.00318.
For `GCCCCCGC`, the E-score was -0.352.
The E-score of `AGTGCAAT` is reported as 0.138.
For `GTTAACCA`, the E-score was -0.00822.
With `CGTTTTCC` the E-score was 0.0854.
`CCTGAGCA` gave an E-score of -0.145.
For `CAAGAAGC`, the E-score was 0.056.
`CCAGCGCG` gave an E-score of -0.344.
The E-score of `CGATCTTC` is reported as -0.0669.
`GGTGCAAC` has an E-score of -0.204.
`CGCCGTCA` has an E-score of -0.203.
The E-score of `TACCTGCA` is reported as -0.0442.

Block 6 — technique: protein binding microarray; form: double-stranded DNA, one strand shown; matrix: in vitro; tested at: not given; reference: not given; reading: higher = stronger binding
Target: Histone acetyltransferase KAT6A, winged helix 1, GST fusion (KAT6A, Homo sapiens, UniProt Q92794, residues 1-85)
Notes: 8-mer, flanks averaged, mean of 2 arrays, mostly near background
Residues (chain): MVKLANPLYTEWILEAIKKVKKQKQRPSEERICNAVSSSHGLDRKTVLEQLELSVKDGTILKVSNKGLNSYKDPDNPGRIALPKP
With `CCCGTTCA` the E-score was 0.107.
With `AACGTGGC` the E-score was -0.137.
`TGTAAAAA` has an E-score of -0.27.
For `CCAGAAGA`, the E-score was -0.319.
For `ATACGCAT`, the E-score was 0.0956.
`AATCATTC` gave an E-score of -0.106.
`AGCCCAAT` gave an E-score of -0.226.
`ACGAGTAG` has an E-score of 0.000985.
`TCTAGCAA` gave an E-score of -0.131.
`AAGGACAT` gave an E-score of -0.0555.
With `ACGAATGC` the E-score was -0.0323.
For `CGGATCTC`, the E-score was 0.0686.
`CACCCTTC` has an E-score of -0.243.
With `ATACTCCC` the E-score was 0.0587.
`GACCAACC` gave an E-score of -0.0403.
`GTCCGGTA` has an E-score of 0.149.
`AAGGTACC` has an E-score of -0.0177.
With `CTGTACGA` the E-score was -0.154.
`AATAGTCT` gave an E-score of -0.161.
`GGGCACGA` has an E-score of 0.0163.

Block 7 — technique: aptamer microarray, sandwich; form: DNA with 2'F-ANA; matrix: in vitro; tested at: 200 nM; together with: Cy3 exosite-II aptamer, 400 nM; reading: higher = stronger binding; strand: GGTTGGTGTGGTTGG
Target: Prothrombin, mature alpha-thrombin (F2, Homo sapiens, UniProt P00734)
Notes: whole 15-mer aptamer, many near background
For `2'F-ANA at 1 5 6 11 13 14`, “mean fluorescence intensity” read 75.4 a.u.
Under “mean fluorescence intensity”, `2'F-ANA at 1 4 5 7 11 12 13 14` is recorded as 44.7 a.u.
`2'F-ANA at 2 4 5 8 11 12 13`: “mean fluorescence intensity” 82.4 a.u.
`2'F-ANA at 1 3 5 7 11 13 15`: “mean fluorescence intensity” 49.5 a.u.
For `2'F-ANA at 1 2 5 6 9 11`, “mean fluorescence intensity” read 51.1 a.u.
`2'F-ANA at 3 5 8 11 13 15` — result for “mean fluorescence intensity”: 99.8 a.u.
Under “mean fluorescence intensity”, `2'F-ANA at 2 4 5 7 10 14 15` is recorded as 45.7 a.u.
For `2'F-ANA at 2 3 4 5 7 8 10`, “mean fluorescence intensity” read 56.5 a.u.
Under “mean fluorescence intensity”, `2'F-ANA at 2 3 5 8 9 11 12` is recorded as 208 a.u.
`2'F-ANA at 3 4 5 10 14 15`: “mean fluorescence intensity” 121 a.u.
Under “mean fluorescence intensity”, `2'F-ANA at 1 2 8 11 12 13 15` is recorded as 312 a.u.
Under “mean fluorescence intensity”, `2'F-ANA at 2 3 7 8 10 11 13` is recorded as 380 a.u.
`2'F-ANA at 1 6 8 10 12 13 14`: “mean fluorescence intensity” 46.8 a.u.
`2'F-ANA at 2 3 4 6 7 8 9 10 13 14 15` — result for “mean fluorescence intensity”: 145 a.u.
`2'F-ANA at 1 3 4 6 8 12 14 15`: “mean fluorescence intensity” 89.1 a.u.
For `2'F-ANA at 6 8 10 11 13 15`, “mean fluorescence intensity” read 129 a.u.

A few entries again (block 6):
`AGCCCAAT` gave an E-score of -0.226.
`GACCAACC` gave an E-score of -0.0403.
`AAGGACAT` gave an E-score of -0.0555.
`AATCATTC` gave an E-score of -0.106.
With `CTGTACGA` the E-score was -0.154.
For `CCAGAAGA`, the E-score was -0.319.
For `CGGATCTC`, the E-score was 0.0686.
With `ATACTCCC` the E-score was 0.0587.
With `AACGTGGC` the E-score was -0.137.
`TCTAGCAA` gave an E-score of -0.131.
`GGGCACGA` has an E-score of 0.0163.
`AATAGTCT` gave an E-score of -0.161.
For `ATACGCAT`, the E-score was 0.0956.
`ACGAGTAG` has an E-score of 0.000985.
`GTCCGGTA` has an E-score of 0.149.
